Measured values from different studies.
Compare with care: the assays were run in different laboratories.
4'-phosphopantetheinyl transferase PptT: 4'-phosphopantetheinyl transferase PptT (Mycobacterium tuberculosis, UniProt O33336)
Chain of UniProt O33336 (whole entry, looked up): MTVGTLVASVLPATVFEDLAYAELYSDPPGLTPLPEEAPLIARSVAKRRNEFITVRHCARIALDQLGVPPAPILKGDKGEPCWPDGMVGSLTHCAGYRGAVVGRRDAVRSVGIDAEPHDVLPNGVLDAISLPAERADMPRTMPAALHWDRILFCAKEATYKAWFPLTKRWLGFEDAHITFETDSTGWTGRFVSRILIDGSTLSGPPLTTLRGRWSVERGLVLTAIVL
Chain of UniProt P21728 (whole entry, looked up): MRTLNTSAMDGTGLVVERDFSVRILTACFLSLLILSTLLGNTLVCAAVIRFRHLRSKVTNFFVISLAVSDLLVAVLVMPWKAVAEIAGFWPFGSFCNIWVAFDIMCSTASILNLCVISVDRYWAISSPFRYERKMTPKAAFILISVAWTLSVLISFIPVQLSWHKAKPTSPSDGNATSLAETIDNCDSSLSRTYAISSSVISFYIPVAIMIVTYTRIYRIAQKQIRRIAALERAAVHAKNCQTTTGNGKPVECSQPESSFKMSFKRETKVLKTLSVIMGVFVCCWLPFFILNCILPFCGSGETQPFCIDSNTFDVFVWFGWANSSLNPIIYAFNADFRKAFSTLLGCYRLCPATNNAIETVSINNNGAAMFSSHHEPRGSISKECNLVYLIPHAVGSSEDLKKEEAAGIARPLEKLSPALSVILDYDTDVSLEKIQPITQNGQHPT
Chain of UniProt P21675 (whole entry, unmodified, looked up): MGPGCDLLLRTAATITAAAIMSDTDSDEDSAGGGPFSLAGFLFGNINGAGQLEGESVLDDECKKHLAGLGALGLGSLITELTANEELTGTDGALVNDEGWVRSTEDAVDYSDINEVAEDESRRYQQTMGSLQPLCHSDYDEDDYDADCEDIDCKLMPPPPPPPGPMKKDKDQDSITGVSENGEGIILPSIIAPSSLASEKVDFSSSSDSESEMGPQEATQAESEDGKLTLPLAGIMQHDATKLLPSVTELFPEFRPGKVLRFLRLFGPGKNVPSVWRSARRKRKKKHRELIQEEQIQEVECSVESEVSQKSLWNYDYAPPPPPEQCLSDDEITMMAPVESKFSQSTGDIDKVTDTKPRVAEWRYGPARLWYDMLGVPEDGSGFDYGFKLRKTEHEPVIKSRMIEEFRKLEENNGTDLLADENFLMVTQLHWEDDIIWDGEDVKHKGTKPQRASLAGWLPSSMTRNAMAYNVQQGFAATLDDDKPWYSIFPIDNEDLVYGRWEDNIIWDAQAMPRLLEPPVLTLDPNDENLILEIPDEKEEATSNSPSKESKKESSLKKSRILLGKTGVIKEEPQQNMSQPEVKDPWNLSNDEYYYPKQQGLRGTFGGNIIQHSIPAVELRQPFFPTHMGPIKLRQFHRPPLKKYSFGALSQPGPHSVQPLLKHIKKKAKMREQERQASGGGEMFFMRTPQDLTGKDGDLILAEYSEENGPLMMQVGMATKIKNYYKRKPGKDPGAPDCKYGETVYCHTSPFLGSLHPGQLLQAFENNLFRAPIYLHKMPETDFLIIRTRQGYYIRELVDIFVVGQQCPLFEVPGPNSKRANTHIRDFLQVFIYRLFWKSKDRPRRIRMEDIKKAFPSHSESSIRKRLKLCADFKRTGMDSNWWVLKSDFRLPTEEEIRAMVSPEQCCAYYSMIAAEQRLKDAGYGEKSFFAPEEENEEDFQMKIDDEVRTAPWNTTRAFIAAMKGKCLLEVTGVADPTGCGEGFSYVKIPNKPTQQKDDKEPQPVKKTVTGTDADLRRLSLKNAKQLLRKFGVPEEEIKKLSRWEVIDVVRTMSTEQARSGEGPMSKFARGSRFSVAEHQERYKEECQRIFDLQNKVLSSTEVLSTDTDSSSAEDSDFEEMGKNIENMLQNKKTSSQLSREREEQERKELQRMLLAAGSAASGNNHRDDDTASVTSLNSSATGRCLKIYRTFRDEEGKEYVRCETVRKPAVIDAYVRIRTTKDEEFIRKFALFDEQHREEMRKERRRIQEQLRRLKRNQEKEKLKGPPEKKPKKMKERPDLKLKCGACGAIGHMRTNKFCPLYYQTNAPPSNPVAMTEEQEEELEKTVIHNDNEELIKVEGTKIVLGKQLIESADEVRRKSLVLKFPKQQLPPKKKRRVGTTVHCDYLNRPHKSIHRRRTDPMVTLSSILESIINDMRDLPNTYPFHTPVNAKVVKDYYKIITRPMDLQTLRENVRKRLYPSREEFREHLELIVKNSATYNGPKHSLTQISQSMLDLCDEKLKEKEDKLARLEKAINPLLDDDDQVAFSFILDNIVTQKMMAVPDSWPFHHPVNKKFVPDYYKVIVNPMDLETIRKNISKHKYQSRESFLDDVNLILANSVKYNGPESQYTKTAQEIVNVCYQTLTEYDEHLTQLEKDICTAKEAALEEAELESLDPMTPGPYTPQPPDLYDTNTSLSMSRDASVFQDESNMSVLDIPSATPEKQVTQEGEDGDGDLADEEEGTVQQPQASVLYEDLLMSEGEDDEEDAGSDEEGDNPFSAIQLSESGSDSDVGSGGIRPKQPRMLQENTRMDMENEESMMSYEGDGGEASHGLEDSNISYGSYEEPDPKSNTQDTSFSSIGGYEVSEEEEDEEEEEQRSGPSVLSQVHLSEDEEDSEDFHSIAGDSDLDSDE
Chain of UniProt P54646 (whole entry, looked up): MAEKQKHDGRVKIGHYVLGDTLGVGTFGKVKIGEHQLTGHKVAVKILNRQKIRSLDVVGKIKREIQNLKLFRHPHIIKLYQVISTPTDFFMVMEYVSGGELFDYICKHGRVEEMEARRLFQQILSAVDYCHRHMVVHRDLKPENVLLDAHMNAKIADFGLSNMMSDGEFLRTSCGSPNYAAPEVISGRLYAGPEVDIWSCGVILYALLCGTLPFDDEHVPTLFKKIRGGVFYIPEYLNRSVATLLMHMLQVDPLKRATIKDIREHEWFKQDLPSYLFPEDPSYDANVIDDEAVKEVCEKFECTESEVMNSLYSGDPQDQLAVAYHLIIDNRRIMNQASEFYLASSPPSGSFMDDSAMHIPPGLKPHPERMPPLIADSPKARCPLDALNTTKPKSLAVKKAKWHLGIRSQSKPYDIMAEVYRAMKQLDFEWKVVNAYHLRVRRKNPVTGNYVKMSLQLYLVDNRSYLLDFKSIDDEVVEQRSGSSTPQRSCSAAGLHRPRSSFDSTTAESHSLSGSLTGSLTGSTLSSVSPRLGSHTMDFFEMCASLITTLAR
Chain of UniProt Q0P543 (whole entry, looked up): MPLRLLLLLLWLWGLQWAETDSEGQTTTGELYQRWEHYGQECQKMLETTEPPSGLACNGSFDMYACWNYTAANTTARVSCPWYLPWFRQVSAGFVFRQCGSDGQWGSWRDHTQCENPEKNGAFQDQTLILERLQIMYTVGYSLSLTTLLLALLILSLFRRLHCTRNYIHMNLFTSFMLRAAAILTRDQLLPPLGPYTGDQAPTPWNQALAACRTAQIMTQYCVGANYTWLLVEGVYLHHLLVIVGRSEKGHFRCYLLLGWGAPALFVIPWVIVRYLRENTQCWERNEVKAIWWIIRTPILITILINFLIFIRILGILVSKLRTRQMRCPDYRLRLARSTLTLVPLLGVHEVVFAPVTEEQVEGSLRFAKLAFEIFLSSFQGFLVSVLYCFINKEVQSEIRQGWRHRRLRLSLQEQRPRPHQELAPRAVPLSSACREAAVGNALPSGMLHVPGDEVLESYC
Chain of UniProt P42336 (whole entry, looked up): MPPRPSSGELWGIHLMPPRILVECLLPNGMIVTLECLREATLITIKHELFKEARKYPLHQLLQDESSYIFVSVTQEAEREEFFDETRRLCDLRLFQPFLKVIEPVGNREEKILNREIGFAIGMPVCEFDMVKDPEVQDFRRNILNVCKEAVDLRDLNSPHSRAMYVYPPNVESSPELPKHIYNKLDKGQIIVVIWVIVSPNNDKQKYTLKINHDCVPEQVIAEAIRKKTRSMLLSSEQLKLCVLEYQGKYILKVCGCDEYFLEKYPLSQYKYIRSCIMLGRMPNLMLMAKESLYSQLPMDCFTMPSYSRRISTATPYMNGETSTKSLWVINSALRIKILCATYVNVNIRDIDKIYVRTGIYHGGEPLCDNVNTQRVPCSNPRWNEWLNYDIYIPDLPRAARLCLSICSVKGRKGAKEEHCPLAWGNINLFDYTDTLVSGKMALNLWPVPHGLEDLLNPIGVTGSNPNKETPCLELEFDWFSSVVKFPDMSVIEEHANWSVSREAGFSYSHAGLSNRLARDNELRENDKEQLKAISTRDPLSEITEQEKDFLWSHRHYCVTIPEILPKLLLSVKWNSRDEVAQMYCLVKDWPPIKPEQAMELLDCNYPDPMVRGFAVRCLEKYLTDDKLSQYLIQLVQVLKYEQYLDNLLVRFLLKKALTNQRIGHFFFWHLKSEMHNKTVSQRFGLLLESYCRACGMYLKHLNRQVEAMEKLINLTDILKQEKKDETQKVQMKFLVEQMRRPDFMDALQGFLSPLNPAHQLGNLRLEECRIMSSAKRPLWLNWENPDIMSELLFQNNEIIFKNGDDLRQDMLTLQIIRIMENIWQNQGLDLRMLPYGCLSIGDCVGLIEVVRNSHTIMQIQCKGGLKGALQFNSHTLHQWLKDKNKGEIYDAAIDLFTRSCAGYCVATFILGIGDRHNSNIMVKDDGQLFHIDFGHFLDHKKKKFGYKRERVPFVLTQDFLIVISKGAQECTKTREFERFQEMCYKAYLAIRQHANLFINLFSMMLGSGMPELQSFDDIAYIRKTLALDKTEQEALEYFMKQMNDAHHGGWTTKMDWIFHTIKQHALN

| Structure (SMILES) | tested on | assay | system | conditions | measurement | result |
| --- | --- | --- | --- | --- | --- | --- |
| [2H]c1c([2H])c([C@]2([2H])CCCN2C(=O)C(C)(C)Oc2ccc3cn[nH]c3c2)c([2H])c([2H])c1C([2H])([2H])[2H] | Serine/threonine-protein kinase ICK (CILK1, Homo sapiens, UniProt Q9UPZ9) | binding, competition with immobilised ligand | – | 1 µM | remaining binding | 85% |
| CCN(CC)CCCC[C@H](NC(=O)[C@H](CC(C)C)NC(=O)[C@H](C)NC(=O)[C@H](Cc1ccccc1)NC(=O)c1ccc(C(C)(C)C)cc1)C(=O)N[C@@H](CO)C(=O)OC | Transcription initiation factor TFIID subunit 1, BD1 (TAF1, Homo sapiens, UniProt P21675) | thermal stability, DSF | – | 25 µM | ΔTm | 0.44 °C |
| CC[C@H](C)[C@H](NC(=O)[C@H](CO)NC(=O)[C@H](Cc1ccc(O)cc1)NC(=O)[C@H](CC(=O)O)NC(=O)[C@H](CO)NC(=O)[C@@H](NC(=O)[C@H](Cc1ccccc1)NC(=O)[C@@H](NC(=O)CNC(=O)[C@H](CCC(=O)O)NC(=O)[C@H](C)NC(=O)[C@@H](N)Cc1ccc(O)cc1)[C@@H](C)O)[C@@H](C)CC)C(=O)N[C@@H](C)C(=O)N[C@@H](CCSC)C(=O)N[C@@H](CC(=O)O)C(=O)N[C@@H](CCCCN)C(=O)N[C@H](C(=O)N[C@@H](Cc1c[nH]cn1)C(=O)N[C@@H](CCC(N)=O)C(=O)N[C@@H](CCC(N)=O)C(=O)N[C@@H](CC(=O)O)C(=O)N[C@@H](Cc1ccccc1)C(=O)N[C@H](C(=O)N[C@@H](CC(N)=O)C(=O)N[C@@H](Cc1c[nH]c2ccccc12)C(=O)N[C@@H](CC(C)C)C(=O)N[C@@H](CC(C)C)C(=O)N[C@@H](C)C(=O)N[C@@H](CCC(N)=O)C(=O)N[C@@H](CCCCN)C(=O)NCC(=O)N[C@@H](CCCCN)C(=O)N[C@@H](CCCCN)C(=O)N[C@@H](CC(N)=O)C(=O)N[C@@H](CC(=O)O)C(=O)N[C@@H](Cc1c[nH]c2ccccc12)C(=O)N[C@@H](CCCCN)C(=O)N[C@@H](Cc1c[nH]cn1)C(=O)N[C@@H](CC(N)=O)C(=O)N[C@H](C(=O)N[C@H](C(=O)N[C@@H](CCC(N)=O)C(=O)O)[C@@H](C)O)[C@@H](C)CC)C(C)C)[C@@H](C)CC | Gastric inhibitory polypeptide receptor (Mus musculus, UniProt Q0P543) | β-arrestin recruitment, agonist | – | – | Emax | 96% |
| COc1ncccc1-c1cnn2ccc(N3CCN(C(=O)OC(C)C)CC3)nc12 | 5'-AMP-activated protein kinase catalytic subunit alpha-2 (PRKAA2, Homo sapiens, UniProt P54646) | binding, competition with immobilised ligand | – | 1 µM | remaining binding | 93% |
| N.N.[Cl][Pt][Cl] | Granta-519 | cell growth or viability, ATP luminescence | – | 10 µM, 72 h | inhibition | 82% |
| CC(C)CC(=O)OC[C@H]1O[C@@](C#N)(c2ccc3c(N)ncnn23)[C@H](O)[C@@H]1O | D(1A) dopamine receptor (DRD1, Homo sapiens, UniProt P21728) | cell-free assay | – | 20 µM | inhibition | 2% |
| C#Cc1ccc2c(c1)C(c1ccccn1)=NCc1c(-c3cnco3)ncn1-2.Cl | – | – | water | 1 h, 37 °C | kinetic solubility | 3900 µg/mL |
| O=C1NC(=O)C(c2ccccc2)(c2ccccc2)N1 | Potassium/sodium hyperpolarization-activated cyclic nucleotide-gated channel 1 (Homo sapiens, UniProt O60741) | ion current, inhibitor | – | 3 µM | inhibition | -1.57% |
| N#Cc1cc2[nH]c(=S)n(Cc3cccnc3)c(=O)c2cc1Cl | 4'-phosphopantetheinyl transferase PptT | enzyme activity, inhibitor, FP | – | – | IC50 | 1.94 µM |
| Cc1nn(C)cc1-c1nc2c(N3CCN(Cc4ccc(Cl)cc4)CC3)c(Cl)cnc2[nH]1 | Phosphatidylinositol 4,5-bisphosphate 3-kinase catalytic subunit alpha isoform (PIK3CA, Homo sapiens, UniProt P42336) | binding, competition with immobilised ligand | – | 1 µM | remaining binding | 100% |
| Nc1ncc(-c2nc(N3CCOCC3)nc(N3CCOCC3)n2)c(C(F)F)n1 | cAMP-dependent protein kinase catalytic subunit beta (PRKACB, Homo sapiens, UniProt P22694) | binding, competition with immobilised ligand | – | 10 µM | remaining binding | 61% |
| O=c1c2cc(C(F)(F)F)ncc2[nH]c(=S)n1Cc1cccnc1 | 4'-phosphopantetheinyl transferase PptT | enzyme activity, inhibitor, FP | – | – | IC50 | 5.78 µM |

A few entries again:
| Structure (SMILES) | tested on | assay | system | conditions | measurement | result |
| --- | --- | --- | --- | --- | --- | --- |
| N.N.[Cl][Pt][Cl] | Granta-519 | cell growth or viability, ATP luminescence | – | 10 µM, 72 h | inhibition | 82% |
